Experimental data pooled from the literature.
Each line is one published result; not all experiments were run side by side. Several values in a cell are separate wells, animals, samples, runs or records. Numbers after ± are the reported error.
rhlR: HTH-type quorum-sensing regulator RhlR (rhlR, Pseudomonas aeruginosa, UniProt P54292)
Sequence of UniProt O15305 (whole entry, looked up): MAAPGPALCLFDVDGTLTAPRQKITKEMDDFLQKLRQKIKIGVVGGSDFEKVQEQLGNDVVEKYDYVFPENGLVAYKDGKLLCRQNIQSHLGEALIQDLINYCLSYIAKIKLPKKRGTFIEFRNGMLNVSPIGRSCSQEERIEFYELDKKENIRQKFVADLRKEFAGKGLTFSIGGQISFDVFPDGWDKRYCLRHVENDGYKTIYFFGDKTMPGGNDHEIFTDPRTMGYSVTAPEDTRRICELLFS
Sequence of UniProt P54292 (whole entry, looked up): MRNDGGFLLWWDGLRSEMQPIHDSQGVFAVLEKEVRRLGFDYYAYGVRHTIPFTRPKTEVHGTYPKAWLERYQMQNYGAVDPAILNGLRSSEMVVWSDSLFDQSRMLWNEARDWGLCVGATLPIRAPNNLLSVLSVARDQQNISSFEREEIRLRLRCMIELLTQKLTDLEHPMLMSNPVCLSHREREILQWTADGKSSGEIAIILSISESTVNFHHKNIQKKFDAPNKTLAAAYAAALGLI
Sequence of UniProt P51575 (whole entry, unmodified, looked up): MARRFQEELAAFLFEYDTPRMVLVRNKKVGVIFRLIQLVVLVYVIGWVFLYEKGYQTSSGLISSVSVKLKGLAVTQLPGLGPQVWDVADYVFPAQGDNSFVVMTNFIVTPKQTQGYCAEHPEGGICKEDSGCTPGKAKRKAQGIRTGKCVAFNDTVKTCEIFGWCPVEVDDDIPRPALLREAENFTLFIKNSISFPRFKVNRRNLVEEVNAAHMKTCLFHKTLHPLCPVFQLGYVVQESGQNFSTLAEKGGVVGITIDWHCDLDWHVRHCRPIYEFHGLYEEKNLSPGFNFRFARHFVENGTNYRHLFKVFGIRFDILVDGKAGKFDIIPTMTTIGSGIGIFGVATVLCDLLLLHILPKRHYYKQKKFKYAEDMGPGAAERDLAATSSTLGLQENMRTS
Sequence of UniProt Q9H093 (whole entry, looked up): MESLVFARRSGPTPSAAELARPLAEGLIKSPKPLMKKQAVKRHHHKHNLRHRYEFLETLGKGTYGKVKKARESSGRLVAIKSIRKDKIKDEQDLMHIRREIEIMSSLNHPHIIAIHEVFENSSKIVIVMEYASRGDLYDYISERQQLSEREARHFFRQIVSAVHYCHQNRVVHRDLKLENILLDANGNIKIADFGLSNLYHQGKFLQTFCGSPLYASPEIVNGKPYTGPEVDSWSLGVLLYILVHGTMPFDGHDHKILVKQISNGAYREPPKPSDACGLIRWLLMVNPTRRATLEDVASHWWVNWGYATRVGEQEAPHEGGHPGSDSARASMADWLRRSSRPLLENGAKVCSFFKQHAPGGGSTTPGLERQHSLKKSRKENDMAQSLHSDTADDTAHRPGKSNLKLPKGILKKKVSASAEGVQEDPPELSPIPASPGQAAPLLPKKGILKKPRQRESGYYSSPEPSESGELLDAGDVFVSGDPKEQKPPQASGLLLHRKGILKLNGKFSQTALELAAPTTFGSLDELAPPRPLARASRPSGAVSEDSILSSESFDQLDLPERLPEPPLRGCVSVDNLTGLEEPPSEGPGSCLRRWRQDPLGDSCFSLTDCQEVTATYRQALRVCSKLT
Sequence of UniProt P50613 (whole entry, looked up): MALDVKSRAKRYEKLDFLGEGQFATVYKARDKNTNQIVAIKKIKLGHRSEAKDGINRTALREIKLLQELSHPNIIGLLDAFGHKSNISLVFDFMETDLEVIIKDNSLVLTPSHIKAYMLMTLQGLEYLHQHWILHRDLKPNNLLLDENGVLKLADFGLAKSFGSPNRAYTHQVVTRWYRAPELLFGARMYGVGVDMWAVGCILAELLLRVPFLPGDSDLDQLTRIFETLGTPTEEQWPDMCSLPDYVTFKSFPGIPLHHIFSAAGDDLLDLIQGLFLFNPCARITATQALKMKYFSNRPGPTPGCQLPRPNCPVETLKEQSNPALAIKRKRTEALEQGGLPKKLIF
Sequence of UniProt P52333 (whole entry, looked up): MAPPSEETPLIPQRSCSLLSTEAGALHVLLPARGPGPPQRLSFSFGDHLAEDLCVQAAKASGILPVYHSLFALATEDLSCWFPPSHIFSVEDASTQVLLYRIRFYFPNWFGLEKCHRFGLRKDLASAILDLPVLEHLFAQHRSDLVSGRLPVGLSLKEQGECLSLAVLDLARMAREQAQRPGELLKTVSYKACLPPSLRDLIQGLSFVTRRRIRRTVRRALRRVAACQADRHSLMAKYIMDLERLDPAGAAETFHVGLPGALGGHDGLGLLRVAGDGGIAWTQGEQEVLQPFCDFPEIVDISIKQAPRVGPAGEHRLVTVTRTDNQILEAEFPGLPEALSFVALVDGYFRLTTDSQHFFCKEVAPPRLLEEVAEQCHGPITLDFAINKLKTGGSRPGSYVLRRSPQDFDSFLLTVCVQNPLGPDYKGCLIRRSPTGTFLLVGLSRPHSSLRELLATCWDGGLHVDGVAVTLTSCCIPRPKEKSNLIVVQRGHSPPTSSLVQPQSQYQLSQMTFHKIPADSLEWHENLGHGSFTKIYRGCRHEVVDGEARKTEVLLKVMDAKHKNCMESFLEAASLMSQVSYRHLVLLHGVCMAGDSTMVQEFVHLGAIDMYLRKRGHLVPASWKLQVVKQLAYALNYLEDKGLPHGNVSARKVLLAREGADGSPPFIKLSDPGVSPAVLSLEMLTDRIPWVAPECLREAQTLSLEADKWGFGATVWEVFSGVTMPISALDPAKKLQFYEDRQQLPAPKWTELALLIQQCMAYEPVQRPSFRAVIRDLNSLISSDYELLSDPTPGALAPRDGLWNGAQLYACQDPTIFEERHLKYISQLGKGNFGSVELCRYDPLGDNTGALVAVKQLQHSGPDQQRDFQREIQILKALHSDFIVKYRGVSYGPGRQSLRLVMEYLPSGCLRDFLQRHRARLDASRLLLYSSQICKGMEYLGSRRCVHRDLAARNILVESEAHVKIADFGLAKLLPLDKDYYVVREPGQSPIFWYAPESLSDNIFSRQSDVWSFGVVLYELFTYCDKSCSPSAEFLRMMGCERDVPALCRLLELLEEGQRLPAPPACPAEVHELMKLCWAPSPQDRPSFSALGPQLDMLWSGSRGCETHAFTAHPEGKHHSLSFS
Sequence of UniProt O75716 (whole entry, looked up): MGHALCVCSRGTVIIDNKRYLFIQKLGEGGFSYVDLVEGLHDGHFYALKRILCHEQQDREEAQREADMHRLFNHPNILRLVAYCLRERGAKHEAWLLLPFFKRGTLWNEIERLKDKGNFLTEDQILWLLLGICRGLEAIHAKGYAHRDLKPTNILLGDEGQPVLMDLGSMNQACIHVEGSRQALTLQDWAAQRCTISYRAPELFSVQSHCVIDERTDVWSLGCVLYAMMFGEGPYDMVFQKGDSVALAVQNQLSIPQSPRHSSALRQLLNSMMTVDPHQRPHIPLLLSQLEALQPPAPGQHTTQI

SMILES = COc1cc(-c2[nH]nnc2C(=O)c2ccccc2)ccc1O; target or system = rhlR; assay = reporter gene, inhibitor; system = Pseudomonas aeruginosa QS reporter strain; setting = 10 µM, 1.5 h; how to read = baseline: DMSO control; endpoint = remaining activity; result = 75%
SMILES = Nc1ncnc2c1ncn2[C@@H]1O[C@H](COP(=O)(O)CP(=O)(O)OP(=O)(O)O)[C@@H](O)[C@H]1O; target or system = P2X purinoceptor 1 (P2RX1, Homo sapiens, UniProt P51575, R292A); assay = saturation binding; system = HEK293; setting = 1 nM; endpoint = specific binding; result = 9 CCPM
SMILES = O=C(NC1CCC1)c1ccc2nc(-c3cccc(NS(=O)(=O)NCCN4CCCCC4)c3)cn2c1; target or system = STK16 (Homo sapiens, UniProt O75716); assay = enzyme activity; setting = 10 µM; endpoint = remaining activity; result = 100%
SMILES = CC[C@@H]1[C@H](F)C(=O)N[C@@H]1COc1nccc2cc(C(N)=O)c(OC)cc12; target or system = CDK7 (Homo sapiens, UniProt P50613); assay = ATP-site probe binding, ActivX profiling; system = THP-1 cell lysate; setting = 0.04 mM, Lys2 site; endpoint = inhibition; result = -3.7%
SMILES = Cn1cc(-c2ccc(-c3cncc(Cl)c3N3CCC4(CCNC4=O)CC3)cc2)cn1; target or system = COLO 205; assay = gene expression, microarray, measured: KLF8 mRNA; setting = concentration not given, 6 h; how to read = baseline: untreated cells; endpoint = log2 fold change; result = -2.01
SMILES = C=CC(=O)N1CCC[C@@H](n2nc(-c3ccc(Oc4ccccc4)cc3)c3c(N)ncnc32)C1; target or system = ATM (Homo sapiens, UniProt Q13315); setting = 1 µM; endpoint = remaining activity; result = 203%
SMILES = Cc1ccccc1C(=O)C#Cc1ccc(F)c(F)c1; target or system = rhlR; assay = reporter gene, inhibitor, quorum sensing reporter strain; setting = 10 µM, 1.5 h; how to read = baseline: DMSO; endpoint = remaining activity; result = 74%
SMILES = O=C(O)c1ccc(Nc2ncc3c(n2)-c2ccc(Cl)cc2C(c2c(F)cccc2F)=NC3)cc1; target or system = ASK1(h); assay = kinase activity; setting = 1 µM; endpoint = remaining activity; result = 120%
SMILES = COc1cc(-c2cncc3c2CN(C)Cc2cc(N4CCNCC4)ccc2-3)cc(OC)c1OC; target or system = NUAK2 (Homo sapiens, UniProt Q9H093); assay = kinase activity; setting = 1 µM, human enzyme, together with: ATP 10 µM; how to read = baseline: DMSO control; endpoint = remaining activity; result = 113%
SMILES = COc1ccc(C(=O)C#Cc2ccc(O)c(OC)c2)cc1; target or system = rhlR; assay = reporter gene, inhibitor, quorum sensing reporter strain; setting = 10 µM, 1.5 h; how to read = baseline: DMSO; endpoint = remaining activity; result = 96%
SMILES = COc1cc(Nc2ncc3c(n2)-c2ccc(Cl)cc2C(c2c(F)cccc2OC)=NC3)ccc1C(=O)O; target or system = CK1 epsilon (CSNK1E); assay = inhibitor, biochemical kinase; setting = 1 µM; endpoint = remaining activity; result = 104%
SMILES = COc1ccc(F)cc1C(=O)NCc1ccc(-c2nn([C@@H](C)C(F)(F)F)c(N)c2C(N)=O)cc1; target or system = JAK3 (Homo sapiens, UniProt P52333); assay = kinase activity, inhibitor, HotSpot radiometric; setting = 100 nM, together with: ATP 10 µM; endpoint = remaining activity; result = 97.4 ± 0.3%
SMILES = O=C(COP(=O)(O)O)[C@@H](O)[C@H](O)[C@H](O)COP(=O)(O)O; target or system = PMM2 (Homo sapiens, UniProt O15305); setting = 0.1 mM, unit not given; how to read = baseline: activity at 0 mM set to 100; endpoint = enzyme activity; result = 95.1 and 90 and 92.7
